Measured values from different studies.
Parts stem from different laboratories: compare values within a part only.
UniProt Q9NRH2, sequence (whole entry, looked up): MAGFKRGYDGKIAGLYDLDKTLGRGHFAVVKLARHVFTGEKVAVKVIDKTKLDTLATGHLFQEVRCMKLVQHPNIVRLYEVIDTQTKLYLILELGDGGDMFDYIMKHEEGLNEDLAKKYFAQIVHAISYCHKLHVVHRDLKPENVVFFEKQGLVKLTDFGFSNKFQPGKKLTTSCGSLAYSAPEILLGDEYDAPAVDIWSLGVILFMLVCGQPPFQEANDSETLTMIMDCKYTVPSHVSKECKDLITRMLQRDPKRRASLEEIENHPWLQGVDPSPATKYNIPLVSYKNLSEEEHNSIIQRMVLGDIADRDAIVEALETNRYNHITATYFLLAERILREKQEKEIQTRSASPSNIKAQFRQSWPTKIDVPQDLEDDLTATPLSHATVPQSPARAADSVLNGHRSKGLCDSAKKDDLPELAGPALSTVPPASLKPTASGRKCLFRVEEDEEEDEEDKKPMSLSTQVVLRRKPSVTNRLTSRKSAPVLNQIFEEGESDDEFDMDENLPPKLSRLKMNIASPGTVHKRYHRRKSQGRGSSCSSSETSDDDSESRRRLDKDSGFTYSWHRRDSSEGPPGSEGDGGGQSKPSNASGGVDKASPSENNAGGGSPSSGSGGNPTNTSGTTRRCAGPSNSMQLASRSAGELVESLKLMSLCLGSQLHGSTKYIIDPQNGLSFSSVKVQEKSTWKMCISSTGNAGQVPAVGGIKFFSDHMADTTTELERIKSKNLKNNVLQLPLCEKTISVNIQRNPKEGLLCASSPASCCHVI
UniProt Q07002, sequence (whole entry, looked up): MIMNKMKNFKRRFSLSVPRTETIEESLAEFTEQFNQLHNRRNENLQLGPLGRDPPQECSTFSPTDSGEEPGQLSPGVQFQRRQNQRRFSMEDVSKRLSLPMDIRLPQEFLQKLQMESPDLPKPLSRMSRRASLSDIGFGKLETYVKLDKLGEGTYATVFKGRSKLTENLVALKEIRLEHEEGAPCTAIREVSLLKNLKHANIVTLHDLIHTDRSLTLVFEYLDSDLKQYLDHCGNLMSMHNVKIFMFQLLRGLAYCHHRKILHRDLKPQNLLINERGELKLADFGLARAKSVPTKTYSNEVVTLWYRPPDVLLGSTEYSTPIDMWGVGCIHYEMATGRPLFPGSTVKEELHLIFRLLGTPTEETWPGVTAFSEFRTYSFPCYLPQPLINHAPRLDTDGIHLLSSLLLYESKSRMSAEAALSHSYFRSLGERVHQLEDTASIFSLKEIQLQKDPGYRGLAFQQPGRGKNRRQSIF
UniProt Q16513, sequence (whole entry, looked up): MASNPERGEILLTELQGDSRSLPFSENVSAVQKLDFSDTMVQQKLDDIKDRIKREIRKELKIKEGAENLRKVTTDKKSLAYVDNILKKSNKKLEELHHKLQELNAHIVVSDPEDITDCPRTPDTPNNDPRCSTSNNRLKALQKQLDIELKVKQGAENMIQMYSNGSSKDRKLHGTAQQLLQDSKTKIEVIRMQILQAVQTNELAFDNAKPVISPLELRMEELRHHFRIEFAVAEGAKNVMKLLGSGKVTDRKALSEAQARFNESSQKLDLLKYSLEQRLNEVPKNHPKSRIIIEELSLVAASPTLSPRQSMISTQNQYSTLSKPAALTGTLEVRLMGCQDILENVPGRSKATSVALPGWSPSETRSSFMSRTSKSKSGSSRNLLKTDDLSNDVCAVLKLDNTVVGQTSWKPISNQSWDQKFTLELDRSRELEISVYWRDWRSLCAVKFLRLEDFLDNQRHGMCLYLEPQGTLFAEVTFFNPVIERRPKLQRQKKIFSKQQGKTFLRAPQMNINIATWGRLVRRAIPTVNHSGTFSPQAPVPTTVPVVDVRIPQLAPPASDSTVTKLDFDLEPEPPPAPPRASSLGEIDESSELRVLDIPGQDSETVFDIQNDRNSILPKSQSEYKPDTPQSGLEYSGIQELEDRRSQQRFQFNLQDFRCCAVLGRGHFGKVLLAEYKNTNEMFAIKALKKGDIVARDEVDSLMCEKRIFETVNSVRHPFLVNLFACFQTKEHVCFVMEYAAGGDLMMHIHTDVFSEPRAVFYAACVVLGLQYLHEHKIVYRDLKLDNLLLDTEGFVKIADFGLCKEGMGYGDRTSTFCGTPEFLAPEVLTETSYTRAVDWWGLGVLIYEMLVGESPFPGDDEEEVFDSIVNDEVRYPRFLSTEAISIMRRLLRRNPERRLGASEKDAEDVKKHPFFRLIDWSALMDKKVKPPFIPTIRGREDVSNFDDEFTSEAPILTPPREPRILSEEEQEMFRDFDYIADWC
UniProt Q99683, sequence (whole entry, looked up): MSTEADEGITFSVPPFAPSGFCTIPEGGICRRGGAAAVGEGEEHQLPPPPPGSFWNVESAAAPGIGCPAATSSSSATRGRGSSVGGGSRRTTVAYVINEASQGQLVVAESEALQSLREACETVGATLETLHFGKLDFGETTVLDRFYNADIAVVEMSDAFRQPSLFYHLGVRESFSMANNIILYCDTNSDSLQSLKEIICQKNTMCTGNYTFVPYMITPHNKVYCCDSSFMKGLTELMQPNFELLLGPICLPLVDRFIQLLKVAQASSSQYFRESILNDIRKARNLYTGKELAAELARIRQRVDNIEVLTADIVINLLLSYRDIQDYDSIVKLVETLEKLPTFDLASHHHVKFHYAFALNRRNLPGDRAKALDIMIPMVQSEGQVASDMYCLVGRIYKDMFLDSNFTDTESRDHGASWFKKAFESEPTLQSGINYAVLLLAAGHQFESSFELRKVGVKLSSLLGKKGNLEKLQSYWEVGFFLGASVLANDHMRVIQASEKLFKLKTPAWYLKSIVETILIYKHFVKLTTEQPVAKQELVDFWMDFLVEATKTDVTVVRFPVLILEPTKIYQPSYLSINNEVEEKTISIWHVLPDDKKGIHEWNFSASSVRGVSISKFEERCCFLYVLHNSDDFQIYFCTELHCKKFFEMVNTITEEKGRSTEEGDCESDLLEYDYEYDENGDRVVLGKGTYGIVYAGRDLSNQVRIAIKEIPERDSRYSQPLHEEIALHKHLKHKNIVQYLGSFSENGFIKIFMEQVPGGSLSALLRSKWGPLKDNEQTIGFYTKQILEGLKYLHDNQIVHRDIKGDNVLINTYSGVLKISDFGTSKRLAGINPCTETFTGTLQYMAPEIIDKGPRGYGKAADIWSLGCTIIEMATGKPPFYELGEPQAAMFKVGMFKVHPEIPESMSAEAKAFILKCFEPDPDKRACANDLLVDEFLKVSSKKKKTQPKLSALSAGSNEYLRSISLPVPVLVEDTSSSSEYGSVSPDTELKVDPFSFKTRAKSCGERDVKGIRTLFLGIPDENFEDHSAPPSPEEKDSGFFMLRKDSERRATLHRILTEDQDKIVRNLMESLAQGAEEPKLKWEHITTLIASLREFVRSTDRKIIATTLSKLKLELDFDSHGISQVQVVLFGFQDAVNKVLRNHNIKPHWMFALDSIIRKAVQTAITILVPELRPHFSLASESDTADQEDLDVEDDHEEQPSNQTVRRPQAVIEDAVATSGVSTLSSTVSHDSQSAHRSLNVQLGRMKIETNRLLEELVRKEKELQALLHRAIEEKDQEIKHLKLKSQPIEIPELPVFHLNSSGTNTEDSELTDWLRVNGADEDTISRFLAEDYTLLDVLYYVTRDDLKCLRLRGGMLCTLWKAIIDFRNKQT
UniProt Q13554, sequence (whole entry, looked up): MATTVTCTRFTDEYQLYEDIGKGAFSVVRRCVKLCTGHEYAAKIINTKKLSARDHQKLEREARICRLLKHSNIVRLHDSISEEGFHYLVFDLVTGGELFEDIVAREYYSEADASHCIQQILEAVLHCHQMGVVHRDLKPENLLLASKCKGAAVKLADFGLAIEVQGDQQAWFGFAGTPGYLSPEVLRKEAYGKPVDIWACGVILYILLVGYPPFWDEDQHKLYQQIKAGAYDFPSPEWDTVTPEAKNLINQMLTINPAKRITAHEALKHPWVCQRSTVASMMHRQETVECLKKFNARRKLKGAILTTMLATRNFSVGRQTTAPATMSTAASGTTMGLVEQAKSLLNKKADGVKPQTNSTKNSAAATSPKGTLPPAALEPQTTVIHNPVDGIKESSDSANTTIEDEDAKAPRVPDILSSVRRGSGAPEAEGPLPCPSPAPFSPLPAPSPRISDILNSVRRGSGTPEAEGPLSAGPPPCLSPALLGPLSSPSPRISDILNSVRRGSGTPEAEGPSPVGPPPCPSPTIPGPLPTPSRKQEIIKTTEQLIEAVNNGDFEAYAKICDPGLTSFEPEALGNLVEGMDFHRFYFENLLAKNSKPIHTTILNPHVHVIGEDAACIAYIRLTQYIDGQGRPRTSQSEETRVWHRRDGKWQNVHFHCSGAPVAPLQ

Series 1
Target: Calcium/calmodulin-dependent protein kinase type II subunit alpha (CAMK2A, Homo sapiens, UniProt Q9UQM7)
UniProt Q9UQM7, sequence (whole entry, looked up): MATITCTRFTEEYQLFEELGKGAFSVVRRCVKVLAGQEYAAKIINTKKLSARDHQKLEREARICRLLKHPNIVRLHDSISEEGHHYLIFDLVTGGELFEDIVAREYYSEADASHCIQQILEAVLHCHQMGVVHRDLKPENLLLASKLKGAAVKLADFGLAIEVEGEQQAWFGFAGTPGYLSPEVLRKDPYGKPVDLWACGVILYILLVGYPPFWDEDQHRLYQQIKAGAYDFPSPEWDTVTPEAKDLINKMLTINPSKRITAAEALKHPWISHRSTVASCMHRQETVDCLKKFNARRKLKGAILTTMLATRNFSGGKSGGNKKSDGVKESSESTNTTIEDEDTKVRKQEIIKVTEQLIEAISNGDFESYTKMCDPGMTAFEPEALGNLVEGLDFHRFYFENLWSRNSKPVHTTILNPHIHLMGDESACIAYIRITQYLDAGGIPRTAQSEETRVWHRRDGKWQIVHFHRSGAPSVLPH
Effect on: enzyme activity
Mode: inhibitor
Tested at: 10 µM
| SMILES | inhibition |
| --- | --- |
| C[C@H]1CC[C@@H](C(C)(C)O)CC2=C1CC[C@@H]2C | -43% |
| Cc1nc(NC(=O)N2CCC[C@H]2C(N)=O)sc1-c1ccnc(C(C)(C)C(F)(F)F)c1 | 10% |
| CCCCCCCCCCCCCCCCCCO | -33% |
| CCCCC1(CCCC)CN(c2ccccc2)c2cc(SC)c(OCC(=O)N[C@@H](C(=O)N[C@@H](CC)C(=O)O)c3ccc(O)cc3)cc2S(=O)(=O)N1 | -3% |
| O=S(=O)(O)c1ccc2[nH]c(-c3ccccc3)nc2c1 | -2% |
| CC(=O)NCCC(=O)O | -8% |

Series 2
Organism: Sarcocystis neurona
Effect on: parasite growth
Tested at: concentration not given
Notes: second screen
Relative to: untreated
| SMILES | log2 fold change |
| --- | --- |
| CC[C@@H]1C(=O)OC[C@@H]1Cc1cncn1C.Cl | 0.23 |
| CN1CCN(c2nc3cc(C(F)(F)F)ccc3n3cccc23)CC1 | 0.05 |
| Cc1cccc(CCN2CCC(C(=O)c3ccc(NS(C)(=O)=O)cc3)CC2)n1.Cl.Cl | 0.13 |
| CN1CCC(=C2c3ccccc3CCc3sccc32)CC1.O=C(O)/C=C\C(=O)O | 0.32 |
| Cl.O=C(O)/C=C/c1ccc(Cn2ccnc2)cc1 | 0.3 |
| C#C[C@]1(O)CC[C@H]2[C@@H]3CCC4=CC(=O)CC[C@@H]4[C@H]3CC[C@@]21C | 0.27 |
| CC[N+](C)(CC)CCOC(=O)C(O)(c1ccccc1)C1CCCCC1.[Br-] (centres unmarked) | 0.33 |
| CC[C@@H](CO)NCCN[C@@H](CC)CO | 0.32 |

Series 3
SMILES: CCCOc1ccc([C@@H]2[C@@H](C(=O)O)[C@H](c3ccc4c(c3)OCO4)CN2CC(=O)Nc2c(CC)cccc2CC)cc1
Effect on: cell-free assay
Technique: competition with immobilised ligand
Tested at: 1 µM
| target | remaining binding |
| --- | --- |
| Epidermal growth factor receptor (EGFR, Homo sapiens, UniProt P00533, del746-750) | 66% |
| Ribosomal protein S6 kinase beta-1 (RPS6KB1, Homo sapiens, UniProt P23443) | 79% |
| Cyclin-dependent kinase 18 (CDK18, Homo sapiens, UniProt Q07002) | 100% |
| Fibroblast growth factor receptor 1 (FGFR1, Homo sapiens, UniProt P11362) | 100% |
| Phosphatidylinositol 4,5-bisphosphate 3-kinase catalytic subunit alpha isoform (PIK3CA, Homo sapiens, UniProt P42336, Q546K) | 80% |
| Ribosomal protein S6 kinase alpha-3, N-terminal kinase domain (RPS6KA3, Homo sapiens, UniProt P51812) | 95% |
| Mitogen-activated protein kinase kinase kinase 2 (MAP3K2, Homo sapiens, UniProt Q9Y2U5) | 100% |
| SNF-related serine/threonine-protein kinase (SNRK, Homo sapiens, UniProt Q9NRH2) | 87% |
| Serine/threonine-protein kinase N2 (PKN2, Homo sapiens, UniProt Q16513) | 100% |
| Ribosomal protein S6 kinase alpha-5, N-terminal kinase domain (RPS6KA5, Homo sapiens, UniProt O75582) | 99% |
| Ribosomal protein S6 kinase alpha-6, N-terminal kinase domain (RPS6KA6, Homo sapiens, UniProt Q9UK32) | 91% |
| Serine/threonine-protein kinase 26 (STK26, Homo sapiens, UniProt Q9P289) | 81% |
| Calcium/calmodulin-dependent protein kinase type II subunit beta (CAMK2B, Homo sapiens, UniProt Q13554) | 88% |
| Serine/threonine-protein kinase PLK1 (PLK1, Homo sapiens, UniProt P53350) | 95% |
| Discoidin domain-containing receptor 2 (DDR2, Homo sapiens, UniProt Q16832) | 74% |

Series 4
Structure (SMILES): O=C(Nc1cnn(-c2csc(C(=O)NC3COC3)c2)c1)Nc1c(F)cccc1Cl
Effect on: enzyme activity
Tested at: 5 µM
| target | mode | relative to | remaining activity |
| --- | --- | --- | --- |
| Tyrosine-protein kinase Mer (MERTK, Homo sapiens, UniProt Q12866) |  | untreated control | 76% |
| Serine/threonine-protein kinase NLK (NLK, Homo sapiens, UniProt Q9UBE8) |  | untreated control | 87.3% |
| Protein kinase C theta type (PRKCQ, Homo sapiens, UniProt Q04759) |  | untreated control | 92.2% |
| Serine/threonine-protein kinase Nek5 (NEK5, Homo sapiens, UniProt Q6P3R8) | inhibitor |  | 88.1% |
| Cyclin-dependent kinase 2, with cyclin A1 (CDK2, Homo sapiens, UniProt P24941) |  | untreated control | 91.1% |
| Serine/threonine-protein kinase LATS1 (LATS1, Homo sapiens, UniProt O95835) | inhibitor |  | 93.5% |
| Dual specificity tyrosine-phosphorylation-regulated kinase 3 (DYRK3, Homo sapiens, UniProt O43781) |  | untreated control | 99.1% |
| Mitogen-activated protein kinase kinase kinase 5 (MAP3K5, Homo sapiens, UniProt Q99683) |  | untreated control | 89.4% |
| Tyrosine-protein kinase Tec (TEC, Homo sapiens, UniProt P42680) |  | untreated control | 97.3% |
